Published values collected from several papers.
Each numbered part is a random draw from the data of one study; scales do not carry over between parts.

Set 1 — observed: enzyme activity; action: inhibitor; tested at: 20 µM; setting: hit confirmation
Target: Replicase polyprotein 1ab, main protease (rep, Severe acute respiratory syndrome coronavirus 2, UniProt P0DTD1)
SMILES	inhibition [%]
O=C(/C=C/c1ccc(O)c2c1[C@@H](C(=O)O[C@H](Cc1ccc(O)c(O)c1)C(=O)O)[C@H](c1ccc(O)c(O)c1)O2)O[C@H](Cc1ccc(O)c(O)c1)C(=O)O	88
CC(=O)Oc1ccccc1C(=O)Nc1ncc([N+](=O)[O-])s1	-13.9
COc1ccc(C(=O)n2nc(-c3ccccc3)nc2N)cc1OC	59.2
NC[C@H](O)c1ccc(O)c(O)c1	75.2

Set 2 — action: inhibitor; tested at: 20 µM
Target: Replicase polyprotein 1ab, nsp13 helicase (rep, Severe acute respiratory syndrome coronavirus 2, UniProt P0DTD1)
SMILES	inhibition [%]
CC12CCC(C(=O)N(CCCCN3CCN(c4ccccn4)CC3)C1=O)C2(C)C (centres unmarked)	-8.92
CN1CC[C@@]2(C)c3cc(OC(=O)Nc4ccccc4)ccc3N(C)[C@@H]12	3.66
COc1cc([C@@H]2c3cc4c(cc3[C@@H](O[C@@H]3O[C@@H]5CO[C@@H](C)O[C@H]5[C@H](O)[C@H]3O)[C@H]3COC(=O)[C@H]23)OCO4)cc(OC)c1O	4.18
CC(C)[C@@H](N)C(=O)O	1.71
OCc1cncc(F)c1	1.24
O=C(OC(C(F)(F)F)C(F)(F)F)N1CCC(C(O)(c2ccc3c(c2)OCO3)c2ccc3c(c2)OCO3)CC1	4.2
COc1ccc(C(=O)c2c(C)n(CCN3CCOCC3)c3cc(I)ccc23)cc1	-2.38
Cn1cc(-c2ccc(F)c(C(F)(F)F)c2)nc1C1CCN(c2ncnc3[nH]ncc23)CC1	-0.23
CN(CCCN1c2ccccc2CCc2ccccc21)CC(=O)c1ccc(Cl)cc1	17.7
CCC(=O)NC[C@H](Cc1ccc(OCCc2nc(-c3ccccc3)oc2C)cc1)N/C(C)=C\C(=O)c1ccc(C(F)(F)F)cc1	2.81
CCC[C@H](N[C@@H](C)C(=O)N1[C@H](C(=O)O)C[C@@H]2CCCC[C@@H]21)C(=O)O	6.88
CC(C)OC(=O)C(C)(C)Oc1ccc(C(=O)c2ccc(Cl)cc2)cc1	-4.32
CCCCOCCOc1nc(-c2ccc(C(=O)O)c(F)c2)sc1C	4.04
Cc1cc(C(=O)NNCc2ccccc2)no1	4.56
O=[N+]([O-])c1ccc(Cl)c([N+](=O)[O-])c1	-0.25
CCCCCCCC[N+](C)(C)Cc1ccccc1	-0.34
COc1ccc2c(c1)c(CC(=O)N1CCOCC1)c(C)n2C(=O)c1ccc(Cl)cc1	2.45
OC[C@H]1O[C@@H](Oc2cc(O)cc(/C=C/c3ccc(O)cc3)c2)[C@H](O)[C@@H](O)[C@@H]1O	1.22
CN(C(=O)Cc1ccccc1)[C@H](CN1CCCC1)c1ccccc1	7.37
CC(=O)[C@]1(O)Cc2c(O)c3c(c(O)c2[C@@H](O[C@H]2C[C@H](N)[C@H](O)[C@H](C)O2)C1)C(=O)c1ccccc1C3=O	88.8
Cc1cc(C)c(S(=O)(=O)Nc2cccc(C(F)(F)F)c2)c(C)c1	13

Set 3 — cell line: HEK-293T; organism: VSV pseudotyped with SARS-CoV-2 spike; tested at: 10 µM; time: 16 h
SMILES	pseudovirus infection [%]
CN/C(=N/CCSCc1nc[nH]c1C)NC#N	87.3
NC(CO)(CO)CO	93.8
CN1[C@@H]2CC[C@H]1C[C@@H](OC(c1ccccc1)c1ccccc1)C2	29.4

Set 4 — technique: RNA Bind-n-Seq; molecule type: RNA; medium: in vitro; tested at: 200 nM; setting: whole 134-nt RNA, ends assumed; added: 150 mM LiCl; baseline: input library; direction: higher = stronger binding; library: 7-deaza-guanosine replaces G
Target: Ras GTPase-activating protein-binding protein 1, full length (G3BP1, Homo sapiens, UniProt Q13283)
UniProt Q13283, sequence (whole entry, looked up): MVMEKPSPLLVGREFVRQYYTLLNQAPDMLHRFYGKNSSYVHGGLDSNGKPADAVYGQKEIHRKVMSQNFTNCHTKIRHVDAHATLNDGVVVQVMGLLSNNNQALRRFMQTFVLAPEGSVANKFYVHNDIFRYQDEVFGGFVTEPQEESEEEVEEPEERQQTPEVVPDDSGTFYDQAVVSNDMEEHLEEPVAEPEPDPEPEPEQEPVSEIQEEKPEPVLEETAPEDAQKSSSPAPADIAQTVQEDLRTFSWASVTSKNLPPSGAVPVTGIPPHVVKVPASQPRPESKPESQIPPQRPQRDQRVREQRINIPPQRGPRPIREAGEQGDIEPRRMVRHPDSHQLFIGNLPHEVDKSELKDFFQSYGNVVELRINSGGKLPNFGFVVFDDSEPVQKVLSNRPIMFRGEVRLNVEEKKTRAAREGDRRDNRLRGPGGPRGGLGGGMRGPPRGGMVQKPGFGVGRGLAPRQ
Constant ends, left off below: GGGAGUUCUACAGUCCGACGAUC … UGGAAUUCUCGGGUGUCAAGG
Oligonucleotide	log2 enrichment
AGUCCUGUGCUACACAUCGUAUGUACCGAAUCAAACCCCCAAAUUUUUAAAUUUAAAAAAGUAUUAUGUUACGCCGUUCGGAUCUGCACU	0.514
UCAAGUCCUGUGCUACACAUCGUAUGUACCGAAUCGGGAAAGGAAAGGGGAAAGGAAAGUAUUAUGUUACGCCGUUCGGAUCUGCACUUC	-0.649
UGGGAGUUGGAUUUUGUUUAUUUUUUUAGCUCAUUUCCAGGGGUGGGAAUUUUUUUUUAAUAUGUGUCAUGAAUAAAGUUGUUUUUGAAA	0.276
UGGCCCUGGUGGCAUUCGGGGAGGAAGAGGUGGCCUCAUGGAUCGUGGUGGUCCCGGUGGAAUGUUCAGAGGUGGCCGUGGUGGAGACAG	0.189
CUCAAGUCCUGUGCUACACAUCGUAUGUACCGAAUCGGGGUUGGUUGGUUGGGGAAAGUAUUAUGUUACGCCGUUCGGAUCUGCACUUCC	0.148
UGGCCCUGGUGGCAUGCAGGGAGGAAGAGGUGGCCUCAUGGAUCGUGGUGGUCCCGGUGGAAUGUUCAGAGGUGGCCGUGGUGGAGACAG	0.646
CUCAAGUCCUGUGCUACACAUCGUAUGUACCGAAUCGGAAGGGGAAGGAAGGGAAAGUAUUAUGUUACGCCGUUCGGAUCUGCACUUCCA	-0.134
GUCCUGUGCUACACAUCGUAUGUACCGAAUCGGGGAGGGGUUUGGGGUUUUUUUGGGGAAAGUAUUAUGUUACGCCGUUCGGAUCUGCAC	-0.351

Set 5 — technique: universal PBM; molecule type: double-stranded DNA, one strand shown; medium: in vitro; tested at: 600 nM; direction: higher = stronger binding
Target: Sal-like protein 4, full length isoform A (SALL4, Homo sapiens, UniProt Q9UJQ4, residues 1-1053)
UniProt Q9UJQ4, sequence (whole entry, looked up): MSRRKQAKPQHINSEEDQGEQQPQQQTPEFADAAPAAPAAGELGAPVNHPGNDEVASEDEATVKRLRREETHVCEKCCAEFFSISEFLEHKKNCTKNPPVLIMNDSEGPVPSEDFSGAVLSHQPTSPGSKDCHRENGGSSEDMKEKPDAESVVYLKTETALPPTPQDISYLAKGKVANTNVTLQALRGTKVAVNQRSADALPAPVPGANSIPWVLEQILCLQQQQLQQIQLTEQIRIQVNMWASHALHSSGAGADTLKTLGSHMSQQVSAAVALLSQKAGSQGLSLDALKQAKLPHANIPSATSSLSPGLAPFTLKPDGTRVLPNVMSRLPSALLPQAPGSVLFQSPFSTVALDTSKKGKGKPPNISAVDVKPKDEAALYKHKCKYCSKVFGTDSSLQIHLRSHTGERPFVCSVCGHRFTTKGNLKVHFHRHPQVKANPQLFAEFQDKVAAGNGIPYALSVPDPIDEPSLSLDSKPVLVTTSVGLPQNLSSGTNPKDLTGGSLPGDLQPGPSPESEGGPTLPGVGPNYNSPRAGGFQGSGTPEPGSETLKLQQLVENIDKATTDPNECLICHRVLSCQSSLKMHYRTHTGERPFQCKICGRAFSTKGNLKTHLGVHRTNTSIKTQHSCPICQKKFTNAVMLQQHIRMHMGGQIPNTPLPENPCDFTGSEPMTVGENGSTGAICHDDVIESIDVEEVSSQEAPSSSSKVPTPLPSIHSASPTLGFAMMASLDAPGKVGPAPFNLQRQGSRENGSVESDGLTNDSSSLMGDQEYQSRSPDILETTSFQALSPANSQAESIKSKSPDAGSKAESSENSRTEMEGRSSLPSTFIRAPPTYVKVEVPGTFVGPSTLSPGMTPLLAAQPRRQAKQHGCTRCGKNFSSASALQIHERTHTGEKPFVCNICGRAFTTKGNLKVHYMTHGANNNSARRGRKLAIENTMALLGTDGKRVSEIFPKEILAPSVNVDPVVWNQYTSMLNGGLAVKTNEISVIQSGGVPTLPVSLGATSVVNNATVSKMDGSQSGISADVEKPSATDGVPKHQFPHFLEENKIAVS
Setting: 8-mer, flanks averaged, mean of replicates
Oligonucleotide	E-score
CATTAAAC	0.291
GAAGAACC	-0.173
CAAGTGCG	-0.159
CACGTCTA	0.00519
GTACGAAC	0.163
CACTCTTC	0.01
ATTCTGCC	-0.0403
CGAAGGCC	-0.313

A few entries again (set 4):
Oligonucleotide	log2 enrichment
UCAAGUCCUGUGCUACACAUCGUAUGUACCGAAUCGGGAAAGGAAAGGGGAAAGGAAAGUAUUAUGUUACGCCGUUCGGAUCUGCACUUC	-0.649
UGGGAGUUGGAUUUUGUUUAUUUUUUUAGCUCAUUUCCAGGGGUGGGAAUUUUUUUUUAAUAUGUGUCAUGAAUAAAGUUGUUUUUGAAA	0.276
UGGCCCUGGUGGCAUUCGGGGAGGAAGAGGUGGCCUCAUGGAUCGUGGUGGUCCCGGUGGAAUGUUCAGAGGUGGCCGUGGUGGAGACAG	0.189
CUCAAGUCCUGUGCUACACAUCGUAUGUACCGAAUCGGGGUUGGUUGGUUGGGGAAAGUAUUAUGUUACGCCGUUCGGAUCUGCACUUCC	0.148
UGGCCCUGGUGGCAUGCAGGGAGGAAGAGGUGGCCUCAUGGAUCGUGGUGGUCCCGGUGGAAUGUUCAGAGGUGGCCGUGGUGGAGACAG	0.646
CUCAAGUCCUGUGCUACACAUCGUAUGUACCGAAUCGGAAGGGGAAGGAAGGGAAAGUAUUAUGUUACGCCGUUCGGAUCUGCACUUCCA	-0.134
